{"data": "Published values of several laboratories", "note": "A part holds a random share of what one study measured.", "sequence of UniProt Q16832 (whole entry, looked up)": "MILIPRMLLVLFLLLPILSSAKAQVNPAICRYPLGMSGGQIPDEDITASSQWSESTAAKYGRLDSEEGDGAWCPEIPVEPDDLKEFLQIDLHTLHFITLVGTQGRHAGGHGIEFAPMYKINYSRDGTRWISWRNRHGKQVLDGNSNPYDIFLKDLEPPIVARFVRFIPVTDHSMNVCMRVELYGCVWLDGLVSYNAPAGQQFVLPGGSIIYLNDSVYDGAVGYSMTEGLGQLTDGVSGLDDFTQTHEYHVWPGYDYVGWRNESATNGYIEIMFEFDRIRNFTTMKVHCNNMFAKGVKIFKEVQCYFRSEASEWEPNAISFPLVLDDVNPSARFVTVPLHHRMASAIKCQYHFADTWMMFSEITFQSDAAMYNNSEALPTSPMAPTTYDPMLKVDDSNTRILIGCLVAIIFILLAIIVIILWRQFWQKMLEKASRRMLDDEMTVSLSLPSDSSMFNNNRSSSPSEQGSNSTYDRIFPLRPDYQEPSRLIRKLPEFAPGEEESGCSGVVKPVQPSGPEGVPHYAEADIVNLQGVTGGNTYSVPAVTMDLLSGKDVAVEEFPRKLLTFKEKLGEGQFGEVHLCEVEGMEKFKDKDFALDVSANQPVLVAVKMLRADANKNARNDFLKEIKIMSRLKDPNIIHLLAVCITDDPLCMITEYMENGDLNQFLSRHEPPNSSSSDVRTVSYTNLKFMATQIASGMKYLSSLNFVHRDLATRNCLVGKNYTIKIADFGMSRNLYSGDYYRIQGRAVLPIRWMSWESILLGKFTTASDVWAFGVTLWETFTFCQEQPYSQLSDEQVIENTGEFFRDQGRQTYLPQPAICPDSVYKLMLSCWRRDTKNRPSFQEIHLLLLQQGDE", "sequence of UniProt P16591 (whole entry, looked up)": "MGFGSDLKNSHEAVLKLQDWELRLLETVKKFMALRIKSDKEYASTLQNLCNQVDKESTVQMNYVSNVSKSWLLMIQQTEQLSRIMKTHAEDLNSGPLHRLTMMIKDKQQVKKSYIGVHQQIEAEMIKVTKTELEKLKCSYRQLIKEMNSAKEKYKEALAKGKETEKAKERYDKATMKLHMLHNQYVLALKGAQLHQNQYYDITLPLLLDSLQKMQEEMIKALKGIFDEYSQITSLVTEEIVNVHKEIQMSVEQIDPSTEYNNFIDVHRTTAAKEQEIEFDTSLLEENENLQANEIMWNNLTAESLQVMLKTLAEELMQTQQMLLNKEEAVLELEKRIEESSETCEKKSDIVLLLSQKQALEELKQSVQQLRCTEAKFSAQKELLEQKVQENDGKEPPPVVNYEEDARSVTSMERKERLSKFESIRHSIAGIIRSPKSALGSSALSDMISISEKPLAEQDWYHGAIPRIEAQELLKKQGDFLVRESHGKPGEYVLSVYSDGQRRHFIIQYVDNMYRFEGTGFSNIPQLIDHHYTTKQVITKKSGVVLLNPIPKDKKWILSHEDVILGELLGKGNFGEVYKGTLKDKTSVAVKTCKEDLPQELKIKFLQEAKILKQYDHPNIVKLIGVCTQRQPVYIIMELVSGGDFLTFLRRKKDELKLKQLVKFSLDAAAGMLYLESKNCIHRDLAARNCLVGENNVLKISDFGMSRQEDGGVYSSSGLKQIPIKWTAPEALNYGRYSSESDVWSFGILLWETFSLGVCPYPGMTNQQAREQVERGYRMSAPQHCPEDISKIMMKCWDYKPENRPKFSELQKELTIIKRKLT", "sequence of UniProt P51957 (whole entry, looked up)": "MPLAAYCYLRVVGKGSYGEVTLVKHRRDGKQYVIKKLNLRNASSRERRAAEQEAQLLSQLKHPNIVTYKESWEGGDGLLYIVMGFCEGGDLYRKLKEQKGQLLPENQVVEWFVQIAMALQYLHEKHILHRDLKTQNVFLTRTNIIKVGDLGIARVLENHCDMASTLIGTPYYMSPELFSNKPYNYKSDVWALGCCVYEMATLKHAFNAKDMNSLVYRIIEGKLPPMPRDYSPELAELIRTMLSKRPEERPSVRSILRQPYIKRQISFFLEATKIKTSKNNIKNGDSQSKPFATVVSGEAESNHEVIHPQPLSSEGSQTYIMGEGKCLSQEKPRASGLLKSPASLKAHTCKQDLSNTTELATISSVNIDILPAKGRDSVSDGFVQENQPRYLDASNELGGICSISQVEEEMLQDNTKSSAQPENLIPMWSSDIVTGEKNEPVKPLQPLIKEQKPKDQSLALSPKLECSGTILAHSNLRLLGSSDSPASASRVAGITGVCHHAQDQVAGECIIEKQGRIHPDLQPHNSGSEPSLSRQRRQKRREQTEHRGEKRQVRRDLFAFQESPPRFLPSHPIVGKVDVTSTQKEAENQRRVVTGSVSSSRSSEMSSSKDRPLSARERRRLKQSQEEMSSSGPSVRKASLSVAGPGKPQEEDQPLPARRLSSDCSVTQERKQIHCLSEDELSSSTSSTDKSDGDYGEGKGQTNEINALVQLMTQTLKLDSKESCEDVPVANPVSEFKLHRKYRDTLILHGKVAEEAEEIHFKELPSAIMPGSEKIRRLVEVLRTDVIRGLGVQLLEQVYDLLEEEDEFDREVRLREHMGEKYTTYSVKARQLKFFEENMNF", "sequence of UniProt P21709 (whole entry, looked up)": "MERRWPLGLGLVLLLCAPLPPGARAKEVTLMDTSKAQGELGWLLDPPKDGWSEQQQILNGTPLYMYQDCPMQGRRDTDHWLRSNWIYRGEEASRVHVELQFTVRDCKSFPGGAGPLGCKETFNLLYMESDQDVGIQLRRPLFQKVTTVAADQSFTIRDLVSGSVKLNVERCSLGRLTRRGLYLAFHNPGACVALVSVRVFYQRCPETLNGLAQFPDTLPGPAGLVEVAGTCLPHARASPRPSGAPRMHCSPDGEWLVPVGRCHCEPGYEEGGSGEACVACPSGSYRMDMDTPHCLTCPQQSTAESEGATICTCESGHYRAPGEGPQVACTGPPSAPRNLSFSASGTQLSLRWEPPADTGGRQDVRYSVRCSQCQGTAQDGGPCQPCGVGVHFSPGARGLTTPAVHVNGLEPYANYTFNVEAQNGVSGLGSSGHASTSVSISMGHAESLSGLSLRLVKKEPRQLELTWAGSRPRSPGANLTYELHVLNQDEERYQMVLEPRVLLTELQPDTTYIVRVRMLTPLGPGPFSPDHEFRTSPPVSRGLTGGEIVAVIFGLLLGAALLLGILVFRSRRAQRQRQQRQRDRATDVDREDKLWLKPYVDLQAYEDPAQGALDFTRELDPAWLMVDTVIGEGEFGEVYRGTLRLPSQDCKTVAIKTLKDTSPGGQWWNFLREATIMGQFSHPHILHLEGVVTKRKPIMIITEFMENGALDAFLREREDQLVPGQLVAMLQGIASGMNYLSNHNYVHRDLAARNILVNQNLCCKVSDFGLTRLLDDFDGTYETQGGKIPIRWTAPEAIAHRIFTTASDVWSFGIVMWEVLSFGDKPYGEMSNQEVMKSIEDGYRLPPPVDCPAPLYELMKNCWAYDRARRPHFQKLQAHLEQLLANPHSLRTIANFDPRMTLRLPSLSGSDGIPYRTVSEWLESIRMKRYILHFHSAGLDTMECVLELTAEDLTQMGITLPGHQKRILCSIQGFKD", "sequence of UniProt P10721 (whole entry, unmodified, looked up)": "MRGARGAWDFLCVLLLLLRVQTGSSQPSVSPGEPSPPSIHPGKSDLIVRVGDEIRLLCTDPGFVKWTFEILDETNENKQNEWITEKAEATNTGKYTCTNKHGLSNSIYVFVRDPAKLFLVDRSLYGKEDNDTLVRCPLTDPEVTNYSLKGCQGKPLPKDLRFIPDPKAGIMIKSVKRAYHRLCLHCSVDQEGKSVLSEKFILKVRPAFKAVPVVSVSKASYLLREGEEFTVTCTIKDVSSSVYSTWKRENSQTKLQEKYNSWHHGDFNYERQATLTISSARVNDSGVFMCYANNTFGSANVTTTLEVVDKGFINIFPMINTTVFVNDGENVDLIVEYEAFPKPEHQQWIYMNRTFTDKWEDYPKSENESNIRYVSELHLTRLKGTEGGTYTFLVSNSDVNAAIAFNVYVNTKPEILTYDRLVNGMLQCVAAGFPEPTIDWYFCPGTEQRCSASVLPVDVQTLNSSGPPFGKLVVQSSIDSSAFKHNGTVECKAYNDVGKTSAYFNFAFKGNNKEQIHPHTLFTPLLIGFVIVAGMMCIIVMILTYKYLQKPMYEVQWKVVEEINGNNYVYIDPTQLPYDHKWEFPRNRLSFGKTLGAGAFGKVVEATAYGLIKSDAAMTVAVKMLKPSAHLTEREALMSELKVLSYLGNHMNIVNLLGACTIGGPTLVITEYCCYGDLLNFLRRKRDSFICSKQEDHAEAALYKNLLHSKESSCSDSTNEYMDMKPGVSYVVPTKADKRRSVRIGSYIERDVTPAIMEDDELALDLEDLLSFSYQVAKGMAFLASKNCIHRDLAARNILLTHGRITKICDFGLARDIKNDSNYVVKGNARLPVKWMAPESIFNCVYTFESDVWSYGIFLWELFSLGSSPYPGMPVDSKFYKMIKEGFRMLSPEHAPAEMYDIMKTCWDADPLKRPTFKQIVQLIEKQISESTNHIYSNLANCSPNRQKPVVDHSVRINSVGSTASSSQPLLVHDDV"}
{"data": "Study 1", "target": "G protein-coupled receptor kinase 5 (GRK5, Homo sapiens, UniProt P34947)", "read-out": "enzyme activity", "action": "inhibitor", "tested at": "0.5 µM", "relative to": "control", "sequence of UniProt P34947 (whole entry, looked up)": "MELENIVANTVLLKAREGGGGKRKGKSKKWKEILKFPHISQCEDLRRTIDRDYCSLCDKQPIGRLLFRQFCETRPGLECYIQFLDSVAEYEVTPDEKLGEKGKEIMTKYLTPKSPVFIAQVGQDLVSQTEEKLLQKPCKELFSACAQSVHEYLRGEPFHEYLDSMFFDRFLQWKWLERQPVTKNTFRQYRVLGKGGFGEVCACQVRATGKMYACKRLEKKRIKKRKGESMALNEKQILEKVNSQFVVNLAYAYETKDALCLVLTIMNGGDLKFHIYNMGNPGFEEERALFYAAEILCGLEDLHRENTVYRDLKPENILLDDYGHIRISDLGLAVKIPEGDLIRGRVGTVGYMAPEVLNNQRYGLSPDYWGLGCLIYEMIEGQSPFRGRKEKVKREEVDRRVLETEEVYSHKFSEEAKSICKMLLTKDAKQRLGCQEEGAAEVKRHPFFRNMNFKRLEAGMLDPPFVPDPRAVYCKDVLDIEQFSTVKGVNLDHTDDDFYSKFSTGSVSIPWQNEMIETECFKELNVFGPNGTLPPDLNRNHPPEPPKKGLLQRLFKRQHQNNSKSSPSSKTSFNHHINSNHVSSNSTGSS"}
{"SMILES": "CN(C)c1ccc(C=C2C(=O)Nc3ccccc32)cc1", "remaining activity": "104%"}
{"SMILES": "O=C1NC(=O)C(c2cn(CCCn3ccnc3)c3ccccc23)=C1Nc1ccccc1", "remaining activity": "90.9%"}
{"SMILES": "Cn1c2ccccc2c2c3c(c4c5ccccc5n(CCC#N)c4c21)CNC3=O", "remaining activity": "89.1%"}
{"SMILES": "C#Cc1cccc(Nc2ncnc3cc(OCCOC)c(OCCOC)cc23)c1", "remaining activity": "100%"}
{"SMILES": "NCCNc1ncc(C(N)=O)c(Nc2cccc(C(F)(F)F)c2)n1", "remaining activity": "92.1%"}
{"SMILES": "COc1cc2nccc(Oc3ccc(NC(=S)NC(=O)c4ccccc4C)cc3)c2cc1OC", "remaining activity": "98.8%"}
{"SMILES": "O=S(=O)(c1cccc2cnccc12)N1CCCNCC1", "remaining activity": "109%"}
{"SMILES": "CC(C)[C@H](CO)Nc1nc(Nc2cc(N)cc(Cl)c2)c2ncn(C(C)C)c2n1", "remaining activity": "101%"}
{"SMILES": "Oc1ccc(-c2nc(-c3ccncc3)c(-c3ccc(F)cc3)[nH]2)cc1", "remaining activity": "104%"}
{"SMILES": "Cc1ccc(NC(=O)c2ccc(CN3CCN(C)CC3)cc2)cc1Nc1nc(-c2cccnc2)cs1", "remaining activity": "106%"}
{"SMILES": "Nc1ncnc2n[nH]c(Nc3ccc(F)cc3)c12", "remaining activity": "97.1%"}
{"SMILES": "O=C(Nc1cccc(Nc2cc(Nc3cccc(C(F)(F)F)c3)ncn2)c1)C1CC1", "remaining activity": "109%"}
{"SMILES": "O=C(O)c1ccc2c3c1cccc3c(=O)n1c3ccccc3nc21", "remaining activity": "97.1%"}
{"SMILES": "COc1ccc(CNC(=O)Nc2ncc([N+](=O)[O-])s2)cc1", "remaining activity": "104%"}
{"SMILES": "COc1ccc(OC)c2c(=S)c3ccccc3[nH]c12", "remaining activity": "108%"}
{"SMILES": "Cc1cccc(-c2[nH]c(C(C)(C)C)nc2-c2ccc3c(c2)OCO3)n1", "remaining activity": "108%"}
{"data": "Study 2", "host": "human", "matrix": "microsomes or S9", "tested at": "2 µM", "time": "0.5 h"}
{"Compound": "CCn1ccc2cc(C(=O)N3C[C@@H](CN4C[C@@H](C)O[C@@H](C)C4)[C@@H](CO)C3)ccc21", "remaining compound [%]": 24.8}
{"Compound": "COc1cc(Cn2nnc(-c3ccc(C)cc3)n2)c(OC)cc1Br", "remaining compound [%]": "> 100"}
{"Compound": "O=C(NOCc1ccccc1)c1ccc2c(c1)NC(CCNS(=O)(=O)c1ccc(F)cc1)C(=O)N2 (stereo not shown)", "remaining compound [%]": 107}
{"Compound": "CC1=CC[C@@H]2CN(C(=O)c3sc(C(C)C)nc3C)C[C@@H]2C1", "remaining compound [%]": 23.5}
{"Compound": "Cc1c(CC(=O)N2CCN(C(=O)C3COc4ccccc4O3)CC2)c(=O)oc2cc(O)c(Cl)cc12 (stereo not shown)", "remaining compound [%]": 80.6}
{"Compound": "COc1cc(=O)n(C)cc1C(=O)NCCCn1ncccc1=O", "remaining compound [%]": "> 99"}
{"Compound": "Cc1cc2c(cc1S(=O)(=O)N(C)CC(=O)N(C)Cc1ccco1)OC(C)C(=O)N2 (stereo not shown)", "remaining compound [%]": 6.55}
{"Compound": "O=c1[nH]c(N2CCN(Cc3ccccc3)CC2)nc(O)c1Cc1ccccc1", "remaining compound [%]": 39.1}
{"data": "Study 3", "Compound": "O=C(NS(=O)(=O)c1ccc(NCC2CCOCC2)c([N+](=O)[O-])c1)c1ccc(N2CCN(Cc3ccc(C(F)(F)F)cc3-c3ccc(Cl)cc3)CC2)cc1Oc1cnc2[nH]ccc2c1", "read-out": "cell-free assay", "technique": "competition with immobilised ligand", "tested at": "1 µM"}
{"target": "Dual specificity protein kinase CLK2 (CLK2, Homo sapiens, UniProt P49760)", "remaining binding [%]": 99}
{"target": "Ephrin type-A receptor 1 (EPHA1, Homo sapiens, UniProt P21709)", "remaining binding [%]": 98}
{"target": "Tyrosine-protein kinase Fer (FER, Homo sapiens, UniProt P16591)", "remaining binding [%]": 94}
{"target": "Discoidin domain-containing receptor 2 (DDR2, Homo sapiens, UniProt Q16832)", "remaining binding [%]": 90}
{"target": "Mast/stem cell growth factor receptor Kit (KIT, Homo sapiens, UniProt P10721, D816H)", "remaining binding [%]": 76}
{"target": "Serine/threonine-protein kinase Nek4 (NEK4, Homo sapiens, UniProt P51957)", "remaining binding [%]": 100}
{"target": "Cyclin-dependent kinase 2 (CDK2, Homo sapiens, UniProt P24941)", "remaining binding [%]": 100}
{"target": "Receptor-type tyrosine-protein kinase FLT3 (FLT3, Homo sapiens, UniProt P36888, K663Q)", "remaining binding [%]": 100}
{"data": "Study 4", "cell line": "HaCaT", "tested at": "100 µM", "time": "36 h"}
{"Compound": "CO[C@H]1C[C@@H]2CC[C@@H](C)[C@@](O)(O2)C(=O)C(=O)N2CCCC[C@H]2C(=O)O[C@H]([C@H](C)C[C@@H]2CC[C@@H](OCCO)[C@H](OC)C2)CC(=O)[C@H](C)/C=C(\\C)[C@@H](O)[C@@H](OC)C(=O)[C@H](C)C[C@H](C)/C=C/C=C/C=C/1C", "viability": "6.76%"}
{"Compound": "C[C@H]1CC[C@@]2(O)C(C)(C)[C@@H]3CC[C@@]2(C)[C@H]1C3", "viability": "33.2%"}
{"Compound": "NC(CO)C(=O)NNCc1ccc(O)c(O)c1O (stereo not shown)", "viability": "107%"}
{"Compound": "Cc1ccccc1C(=O)Nc1ccc(C(=O)N2CCCC(N(C)C)c3ccccc32)cc1 (stereo not shown)", "viability": "45%"}
{"data": "Single results of other studies"}
{"Compound": "C=C1C(=O)O[C@@H]2[C@H]3O[C@]3(C)CC/C=C(\\C)CC[C@@H]12", "target": "DNA polymerase theta, ATPase domain (POLQ, Homo sapiens, UniProt O75417)", "assay": "ssDNA-stimulated ATPase activity, inhibitor, ADP-Glo luminescence", "setting": "77 µM", "how to read": "relative to: DMSO", "endpoint": "remaining activity", "result": "124%"}
{"note": "Some of these lines once more (study 2):"}
{"Compound": "CCn1ccc2cc(C(=O)N3C[C@@H](CN4C[C@@H](C)O[C@@H](C)C4)[C@@H](CO)C3)ccc21", "remaining compound [%]": 24.8}
{"Compound": "CC1=CC[C@@H]2CN(C(=O)c3sc(C(C)C)nc3C)C[C@@H]2C1", "remaining compound [%]": 23.5}
{"Compound": "O=C(NOCc1ccccc1)c1ccc2c(c1)NC(CCNS(=O)(=O)c1ccc(F)cc1)C(=O)N2 (stereo not shown)", "remaining compound [%]": 107}
{"Compound": "Cc1c(CC(=O)N2CCN(C(=O)C3COc4ccccc4O3)CC2)c(=O)oc2cc(O)c(Cl)cc12 (stereo not shown)", "remaining compound [%]": 80.6}
{"Compound": "O=c1[nH]c(N2CCN(Cc3ccccc3)CC2)nc(O)c1Cc1ccccc1", "remaining compound [%]": 39.1}
{"Compound": "COc1cc(Cn2nnc(-c3ccc(C)cc3)n2)c(OC)cc1Br", "remaining compound [%]": "> 100"}
